# Published values from different studies.
# Values joined by “and” are separate records of one study, mostly repeats; a detail may differ. ± gives the spread as reported.
# IL1RL2: Interleukin-1 receptor-like 2 (IL1RL2, Homo sapiens, UniProt Q9HB29)
# Chain of UniProt Q9HB29 (whole entry, looked up): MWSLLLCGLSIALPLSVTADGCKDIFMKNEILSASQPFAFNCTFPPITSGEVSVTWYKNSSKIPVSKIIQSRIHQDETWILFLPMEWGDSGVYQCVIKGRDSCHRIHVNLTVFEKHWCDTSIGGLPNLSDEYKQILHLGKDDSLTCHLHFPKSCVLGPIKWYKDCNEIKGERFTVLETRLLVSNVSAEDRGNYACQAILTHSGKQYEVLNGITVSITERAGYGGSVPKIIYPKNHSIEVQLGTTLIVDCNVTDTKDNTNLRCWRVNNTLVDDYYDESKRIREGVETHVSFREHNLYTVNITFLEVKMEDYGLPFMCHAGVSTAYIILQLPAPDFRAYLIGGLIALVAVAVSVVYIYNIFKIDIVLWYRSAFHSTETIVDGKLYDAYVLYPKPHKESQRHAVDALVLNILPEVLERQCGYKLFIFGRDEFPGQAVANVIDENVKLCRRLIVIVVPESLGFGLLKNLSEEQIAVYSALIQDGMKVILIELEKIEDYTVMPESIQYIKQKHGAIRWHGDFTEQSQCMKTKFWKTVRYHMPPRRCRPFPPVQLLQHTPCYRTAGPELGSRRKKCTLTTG
# CTSK: Cathepsin K (CTSK, Homo sapiens, UniProt P43235)
# Chain of UniProt P43235 (whole entry, looked up): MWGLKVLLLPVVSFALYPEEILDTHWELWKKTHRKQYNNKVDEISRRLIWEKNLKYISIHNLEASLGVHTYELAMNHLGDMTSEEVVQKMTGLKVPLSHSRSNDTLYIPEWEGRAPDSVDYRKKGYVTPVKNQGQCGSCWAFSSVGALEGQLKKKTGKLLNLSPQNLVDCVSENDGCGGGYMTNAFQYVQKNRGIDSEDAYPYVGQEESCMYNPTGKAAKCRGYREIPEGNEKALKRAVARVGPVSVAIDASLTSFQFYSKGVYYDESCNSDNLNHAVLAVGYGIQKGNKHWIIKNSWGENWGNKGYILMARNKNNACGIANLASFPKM
# MAPK8: Mitogen-activated protein kinase 8 (MAPK8, Homo sapiens, UniProt P45983)
# Chain of UniProt P28482 (whole entry, looked up): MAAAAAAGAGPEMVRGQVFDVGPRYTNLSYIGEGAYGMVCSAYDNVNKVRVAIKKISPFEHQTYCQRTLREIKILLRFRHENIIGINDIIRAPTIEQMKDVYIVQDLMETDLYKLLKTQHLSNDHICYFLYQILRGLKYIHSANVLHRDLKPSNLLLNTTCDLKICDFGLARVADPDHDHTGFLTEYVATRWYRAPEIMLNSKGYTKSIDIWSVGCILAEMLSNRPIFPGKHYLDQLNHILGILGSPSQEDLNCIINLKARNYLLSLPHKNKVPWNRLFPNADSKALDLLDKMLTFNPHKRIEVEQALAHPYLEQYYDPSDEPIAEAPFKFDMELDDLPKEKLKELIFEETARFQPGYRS
# Chain of UniProt P45983 (whole entry, looked up): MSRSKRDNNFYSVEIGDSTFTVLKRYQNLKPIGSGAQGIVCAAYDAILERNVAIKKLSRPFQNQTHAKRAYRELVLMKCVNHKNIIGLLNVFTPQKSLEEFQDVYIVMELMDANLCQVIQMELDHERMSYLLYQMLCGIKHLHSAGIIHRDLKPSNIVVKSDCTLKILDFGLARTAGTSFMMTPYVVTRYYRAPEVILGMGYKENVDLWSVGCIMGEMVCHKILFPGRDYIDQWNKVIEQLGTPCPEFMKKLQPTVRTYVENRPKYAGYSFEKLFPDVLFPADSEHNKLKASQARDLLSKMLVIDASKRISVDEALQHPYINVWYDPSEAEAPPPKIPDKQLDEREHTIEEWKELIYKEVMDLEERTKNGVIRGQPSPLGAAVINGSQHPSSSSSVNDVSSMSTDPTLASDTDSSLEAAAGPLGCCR
# Chain of UniProt Q9UKV0 (whole entry, looked up): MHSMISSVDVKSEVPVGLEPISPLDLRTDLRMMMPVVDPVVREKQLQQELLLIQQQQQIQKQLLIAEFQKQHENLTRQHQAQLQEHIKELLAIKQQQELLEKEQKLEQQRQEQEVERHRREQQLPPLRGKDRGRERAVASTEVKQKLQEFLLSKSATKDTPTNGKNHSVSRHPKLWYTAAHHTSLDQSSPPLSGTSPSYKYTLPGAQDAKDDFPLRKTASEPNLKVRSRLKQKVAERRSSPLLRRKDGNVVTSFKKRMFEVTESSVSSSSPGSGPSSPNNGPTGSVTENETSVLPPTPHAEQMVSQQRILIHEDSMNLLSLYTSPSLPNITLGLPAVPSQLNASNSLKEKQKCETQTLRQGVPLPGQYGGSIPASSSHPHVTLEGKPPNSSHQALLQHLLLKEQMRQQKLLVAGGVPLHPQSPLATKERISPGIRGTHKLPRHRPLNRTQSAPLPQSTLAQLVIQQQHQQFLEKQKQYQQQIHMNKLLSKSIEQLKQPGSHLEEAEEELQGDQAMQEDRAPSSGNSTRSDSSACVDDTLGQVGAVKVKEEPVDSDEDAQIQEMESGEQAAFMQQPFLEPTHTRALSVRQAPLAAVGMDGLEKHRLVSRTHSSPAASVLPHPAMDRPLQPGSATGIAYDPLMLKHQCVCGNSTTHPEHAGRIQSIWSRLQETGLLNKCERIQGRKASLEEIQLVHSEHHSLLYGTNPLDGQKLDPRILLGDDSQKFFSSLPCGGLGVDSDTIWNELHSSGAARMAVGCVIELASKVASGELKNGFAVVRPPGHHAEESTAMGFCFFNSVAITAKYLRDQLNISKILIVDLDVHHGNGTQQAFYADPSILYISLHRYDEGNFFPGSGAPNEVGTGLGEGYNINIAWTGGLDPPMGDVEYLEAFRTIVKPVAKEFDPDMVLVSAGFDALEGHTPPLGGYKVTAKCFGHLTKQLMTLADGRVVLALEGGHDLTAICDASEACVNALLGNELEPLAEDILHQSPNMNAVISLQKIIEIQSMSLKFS
# Chain of UniProt Q00534 (whole entry, looked up): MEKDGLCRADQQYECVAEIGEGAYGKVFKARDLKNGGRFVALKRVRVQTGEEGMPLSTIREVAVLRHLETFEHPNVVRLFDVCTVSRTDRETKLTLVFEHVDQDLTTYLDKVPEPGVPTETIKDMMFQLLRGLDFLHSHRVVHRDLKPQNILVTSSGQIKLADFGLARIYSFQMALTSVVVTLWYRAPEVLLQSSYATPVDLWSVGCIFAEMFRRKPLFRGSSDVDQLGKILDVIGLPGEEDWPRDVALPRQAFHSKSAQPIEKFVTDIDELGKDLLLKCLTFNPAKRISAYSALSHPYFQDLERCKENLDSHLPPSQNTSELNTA
# Chain of UniProt P54292 (whole entry, looked up): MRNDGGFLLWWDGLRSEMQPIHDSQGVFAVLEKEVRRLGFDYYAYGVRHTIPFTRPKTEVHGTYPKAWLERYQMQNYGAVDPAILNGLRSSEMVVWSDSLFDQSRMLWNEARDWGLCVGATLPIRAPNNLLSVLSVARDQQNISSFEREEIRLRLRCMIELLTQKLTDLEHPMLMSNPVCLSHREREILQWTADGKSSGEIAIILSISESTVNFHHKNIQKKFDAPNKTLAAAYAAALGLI
# Chain of UniProt P07237 (whole entry, looked up): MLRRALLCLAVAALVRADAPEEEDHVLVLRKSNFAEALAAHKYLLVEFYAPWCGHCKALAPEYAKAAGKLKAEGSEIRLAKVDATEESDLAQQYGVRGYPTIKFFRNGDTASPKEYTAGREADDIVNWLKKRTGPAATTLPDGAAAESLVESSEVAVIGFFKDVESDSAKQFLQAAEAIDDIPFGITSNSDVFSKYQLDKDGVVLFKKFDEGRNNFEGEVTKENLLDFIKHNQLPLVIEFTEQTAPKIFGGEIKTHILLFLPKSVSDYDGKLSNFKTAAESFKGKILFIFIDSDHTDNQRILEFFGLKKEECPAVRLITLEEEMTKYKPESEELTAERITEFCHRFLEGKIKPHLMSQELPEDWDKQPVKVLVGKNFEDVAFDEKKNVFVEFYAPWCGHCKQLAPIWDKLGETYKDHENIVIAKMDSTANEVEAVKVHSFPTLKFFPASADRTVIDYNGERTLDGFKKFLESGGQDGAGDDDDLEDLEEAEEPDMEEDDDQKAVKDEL
# Chain of UniProt P47809 (whole entry, looked up): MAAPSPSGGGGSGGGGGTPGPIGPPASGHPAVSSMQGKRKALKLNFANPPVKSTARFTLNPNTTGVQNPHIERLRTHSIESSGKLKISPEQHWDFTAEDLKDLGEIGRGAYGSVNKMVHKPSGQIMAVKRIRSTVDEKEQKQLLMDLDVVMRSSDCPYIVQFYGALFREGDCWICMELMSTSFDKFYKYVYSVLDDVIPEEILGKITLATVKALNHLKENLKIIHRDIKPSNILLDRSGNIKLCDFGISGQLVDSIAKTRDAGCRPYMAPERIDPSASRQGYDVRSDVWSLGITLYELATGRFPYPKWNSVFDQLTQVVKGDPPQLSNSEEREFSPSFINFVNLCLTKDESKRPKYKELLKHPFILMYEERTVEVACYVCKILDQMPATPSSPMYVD
# Chain of UniProt P06873 (whole entry, looked up): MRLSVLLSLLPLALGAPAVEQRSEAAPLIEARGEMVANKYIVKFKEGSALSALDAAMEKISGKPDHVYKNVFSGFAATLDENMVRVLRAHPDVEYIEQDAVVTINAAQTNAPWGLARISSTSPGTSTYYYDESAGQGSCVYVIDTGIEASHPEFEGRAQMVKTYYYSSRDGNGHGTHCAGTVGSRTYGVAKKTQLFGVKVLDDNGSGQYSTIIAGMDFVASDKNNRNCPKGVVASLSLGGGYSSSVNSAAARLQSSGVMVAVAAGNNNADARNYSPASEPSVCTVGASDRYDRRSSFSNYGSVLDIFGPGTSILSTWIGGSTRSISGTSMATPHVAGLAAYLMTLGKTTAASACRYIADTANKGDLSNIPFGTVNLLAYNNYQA
Structure (SMILES),target or system,assay,test system,conditions,scale,endpoint,result
CC(C)[C@@H]1NC(=O)[C@H](Cc2ccccc2)NC(=O)CSC[C@@H](C(N)=O)NC(=O)[C@H](CCC(=O)O)NC(=O)[C@H](CO)NC(=O)[C@H](Cc2c[nH]c3ccccc23)NC(=O)[C@H](C(C)C)NC(=O)[C@H](C(C)C)NC(=O)[C@H](Cc2ccc(O)cc2)NC(=O)[C@H](CC(=O)O)NC(=O)[C@H](Cc2c[nH]c3ccccc23)NC(=O)[C@H](Cc2ccc(O)cc2)NC(=O)[C@H](Cc2c[nH]c3ccccc23)NC(=O)[C@H](CCC(=O)O)NC1=O,IL1RL2,"IL-8 release, antagonist",A-431,"20 µM, 18 h, together with: IL-36 10 ng/mL",reference: untreated,remaining activity,8.76%
CN(Cc1cc(C2CC2)on1)C(=O)c1cccc(-c2ccc3c(c2)CCO3)c1,"Acetyl-CoA synthetase (Cryptococcus neoformans, UniProt J9VFT1)","enzyme activity, inhibitor, coupled pyrophosphate",,3.91 µM,,remaining activity,75.5% and 70.5%
Cc1ccc2c(c1)sc(-c1ccc(N(C)C)cc1)[n+]2C.[I-],Trypanosoma cruzi,"reporter mRNA translation, inhibitor, refers to: Renilla luciferase mRNA",cell-free extract,"concentration not given, test 1",reference: positive over negative control,translation activity,49.9% and 45.7%
COC(=O)[C@@]1(C)C=C(C(=O)Nc2cccc(C(=O)Nc3ccc(Nc4nccc(-c5cccnc5)n4)c(C)c3)c2)C(=O)CC1,"MAPK1 (Homo sapiens, UniProt P28482)","enzyme activity, inhibitor",,"133.3 µM, unit not given",reference: vehicle,remaining activity,0.47 and 0.382 and 0.476
O=C=[N][Ru-4]123([n]4c5ccc(O)cc5c5c6c(c7cc(F)c[n+]1c7c54)C(=O)NC6=O)[S+]1CC[S+]2CC[S+]3CC1 (stereo not shown),AMPK (rat),"kinase activity, inhibitor",,"100 nM, together with: 10 µM ATP",,remaining activity,93%
N#Cc1cnc2sc(C(=O)O)cc2c1N1CCc2[nH]nc(C(=O)N[C@@H](CC(=O)NCCOCCN3CCOCC3)c3cccc(Br)c3)c2C1,IL1RL2,"reporter gene (SEAP), inhibitor, HEK-Blue IL-36R reporter",HEK-Blue IL-36R cells,"33.33 µM, 6 h, together with: IL36A 0.01 ng/mL",,remaining activity,27%
CCCC(=O)C#Cc1ccc(F)c(F)c1,"rhlR (Pseudomonas aeruginosa, UniProt P54292)","reporter gene, inhibitor, quorum sensing reporter strain",,"10 µM, 1.5 h",reference: DMSO,remaining activity,75%
COc1ccc(NC(=O)Nc2ccc3c(c2)C(=O)N(C(C)CO)CC(C)C(CN(C)Cc2ccc4c(c2)OCO4)O3)cc1 (stereo not shown),"Map2k4 (Mus musculus, UniProt P47809)","kinase activity, KinaseProfiler",,"0.03 µM, species mouse",reference: control,remaining activity,97%
COC(=O)c1ccc2c(c1)nc(NC(=O)c1ccccc1)n2CCCc1ccccc1,"HDAC9 (Homo sapiens, UniProt Q9UKV0)","enzyme activity, inhibitor",,10 µM,,remaining activity,93%
COC(=O)CN1CCCc2cc3cc(C(=O)NC(Cc4ccc(C)cc4)C(=O)NCC=CS(=O)(=O)c4ccccc4)c(=O)oc3cc21 (stereo not shown),CTSK,"enzyme activity, inhibitor, fluorescence",,5 µM,,remaining activity,22%
O=C(NN(c1ccccc1)c1ccccc1)c1ccc([N+](=O)[O-])o1,Trypanosoma cruzi,"reporter mRNA translation, inhibitor, refers to: Renilla luciferase mRNA",cell-free extract,"concentration not given, test 1",reference: positive over negative control,translation activity,106%
COC(=O)[C@]1(C(C)C)C=C(C(=O)Nc2cccc(C(=O)Nc3ccc(Nc4nccc(-c5cccnc5)n4)c(C)c3)c2)C(=O)CC1,MAPK8,"kinase activity, inhibitor",,"14.81 µM, unit not given, together with: 10 mM glutathione",reference: no inhibitor,remaining activity,0.181
Cn1nnnc1Sc1c2c(c(C#N)c3nc4ccccc4n13)CCCC2,"P4HB (Homo sapiens, UniProt P07237)",insulin turbidity,,100 µM,,remaining activity,92.2 ± 6.1%
Nc1ncc(-c2cc(-c3cnn(CC(F)(F)F)c3)ncc2F)nc1C(=O)NC1CNCC(F)C1 (stereo not shown),"Cyclin-dependent kinase 6, with cyclin D2 (CDK6, Homo sapiens, UniProt Q00534)",enzyme activity,,1 µM,reference: DMSO control,remaining activity,86.2%
C=C1C[C@@]2(C(=O)OC)C=C(C(=O)Nc3cccc(C(=O)Nc4ccc(Nc5nccc(-c6cccnc6)n5)c(C)c4)c3)C(=O)[C@@H]1C2,MAPK8,"kinase activity, inhibitor",,"2.788e-05 µM, unit not given, together with: 10 mM glutathione",reference: no inhibitor,remaining activity,0.998
COc1ccccc1-c1ccncc1C(=O)Nc1nnc(OCc2ccc(Cl)cc2)s1,"DNA polymerase theta, helicase domain (POLQ, Homo sapiens, UniProt O75417)","ATPase activity, ADP-Glo",,"0.03 µM, together with: ATP 100 µM",,remaining activity,52%
Cc1ccc(C[C@H](NC(=O)CN2CCCc3cc4cc(C(=O)NCCNC(=O)CCCC[C@@H]5SC[C@@H]6NC(=O)N[C@@H]65)c(=O)oc4cc32)C(=O)NC/C=C/S(=O)(=O)c2ccccc2)cc1,CTSK,"enzyme activity, inhibitor, fluorescence",,5 µM,,remaining activity,37%
CC(C)[C@@H]1NC(=O)[C@H](Cc2ccccc2)NC(=O)CSC[C@@H](C(N)=O)NC(=O)[C@H](CCC(=O)O)NC(=O)[C@H](CO)NC(=O)[C@H](Cc2c[nH]c3cccc(Cl)c23)NC(=O)[C@H](C2CCCCC2)NC(=O)[C@H](C(C)C)NC(=O)[C@H](Cc2ccc(O)cc2)NC(=O)[C@H](CC(=O)O)NC(=O)[C@H](Cc2c[nH]c3ccccc23)NC(=O)[C@H](Cc2ccc(N)nc2)NC(=O)[C@H](Cc2c[nH]c3ccc(Cl)cc23)NC(=O)[C@H](CCC(=O)O)NC1=O,IL1RL2,"reporter gene (SEAP), inhibitor, HEK-Blue IL-36R reporter",HEK-Blue IL-36R cells,"0.046 µM, 6 h, together with: IL-36γ 1 ng/mL",,remaining activity,109%
C[C@](C(=O)NC1CCOCC1)(c1cncnc1)N(C(=O)[C@H](F)Cl)c1ccc(OC(F)(F)Cl)cc1,"Proteinase K (PROK, Engyodontium album, UniProt P06873)","enzyme activity, inhibitor",,10 µM,,remaining activity,101%

# Excerpt of the above:
Structure (SMILES),target or system,assay,test system,conditions,scale,endpoint,result
COC(=O)[C@@]1(C)C=C(C(=O)Nc2cccc(C(=O)Nc3ccc(Nc4nccc(-c5cccnc5)n4)c(C)c3)c2)C(=O)CC1,"MAPK1 (Homo sapiens, UniProt P28482)","enzyme activity, inhibitor",,"133.3 µM, unit not given",reference: vehicle,remaining activity,0.47 and 0.382 and 0.476
O=C=[N][Ru-4]123([n]4c5ccc(O)cc5c5c6c(c7cc(F)c[n+]1c7c54)C(=O)NC6=O)[S+]1CC[S+]2CC[S+]3CC1 (stereo not shown),AMPK (rat),"kinase activity, inhibitor",,"100 nM, together with: 10 µM ATP",,remaining activity,93%
